Measurements collected from several papers.
Parts stem from different laboratories: compare values within a part only.
Sequence of UniProt P10721 (whole entry, unmodified, looked up): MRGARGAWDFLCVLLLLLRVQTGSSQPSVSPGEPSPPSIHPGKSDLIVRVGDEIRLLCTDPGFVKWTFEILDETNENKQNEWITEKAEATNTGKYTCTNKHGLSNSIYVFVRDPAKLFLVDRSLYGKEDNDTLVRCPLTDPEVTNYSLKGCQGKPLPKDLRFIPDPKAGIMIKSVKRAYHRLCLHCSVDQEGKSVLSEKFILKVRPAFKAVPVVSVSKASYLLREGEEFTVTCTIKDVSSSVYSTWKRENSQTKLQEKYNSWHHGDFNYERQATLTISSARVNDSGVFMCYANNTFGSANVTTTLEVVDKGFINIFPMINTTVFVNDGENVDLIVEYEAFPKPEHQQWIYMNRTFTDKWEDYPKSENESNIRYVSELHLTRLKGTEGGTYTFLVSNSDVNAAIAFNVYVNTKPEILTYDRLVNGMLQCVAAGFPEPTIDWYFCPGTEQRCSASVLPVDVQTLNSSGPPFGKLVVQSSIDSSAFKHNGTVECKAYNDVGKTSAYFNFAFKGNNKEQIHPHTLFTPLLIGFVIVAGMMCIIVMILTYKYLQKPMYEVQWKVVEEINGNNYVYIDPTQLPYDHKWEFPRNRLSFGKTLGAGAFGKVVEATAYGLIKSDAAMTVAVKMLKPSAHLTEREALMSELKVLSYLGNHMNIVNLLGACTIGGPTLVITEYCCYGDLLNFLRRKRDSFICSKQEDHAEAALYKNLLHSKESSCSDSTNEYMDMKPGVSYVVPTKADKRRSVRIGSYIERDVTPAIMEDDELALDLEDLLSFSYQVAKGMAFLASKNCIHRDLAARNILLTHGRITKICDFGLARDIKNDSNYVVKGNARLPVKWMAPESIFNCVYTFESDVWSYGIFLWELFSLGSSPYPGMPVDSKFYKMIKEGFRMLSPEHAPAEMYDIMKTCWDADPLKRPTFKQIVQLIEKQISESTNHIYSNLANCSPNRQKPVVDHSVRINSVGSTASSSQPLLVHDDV
Sequence of UniProt Q9UM73 (whole entry, unmodified, looked up): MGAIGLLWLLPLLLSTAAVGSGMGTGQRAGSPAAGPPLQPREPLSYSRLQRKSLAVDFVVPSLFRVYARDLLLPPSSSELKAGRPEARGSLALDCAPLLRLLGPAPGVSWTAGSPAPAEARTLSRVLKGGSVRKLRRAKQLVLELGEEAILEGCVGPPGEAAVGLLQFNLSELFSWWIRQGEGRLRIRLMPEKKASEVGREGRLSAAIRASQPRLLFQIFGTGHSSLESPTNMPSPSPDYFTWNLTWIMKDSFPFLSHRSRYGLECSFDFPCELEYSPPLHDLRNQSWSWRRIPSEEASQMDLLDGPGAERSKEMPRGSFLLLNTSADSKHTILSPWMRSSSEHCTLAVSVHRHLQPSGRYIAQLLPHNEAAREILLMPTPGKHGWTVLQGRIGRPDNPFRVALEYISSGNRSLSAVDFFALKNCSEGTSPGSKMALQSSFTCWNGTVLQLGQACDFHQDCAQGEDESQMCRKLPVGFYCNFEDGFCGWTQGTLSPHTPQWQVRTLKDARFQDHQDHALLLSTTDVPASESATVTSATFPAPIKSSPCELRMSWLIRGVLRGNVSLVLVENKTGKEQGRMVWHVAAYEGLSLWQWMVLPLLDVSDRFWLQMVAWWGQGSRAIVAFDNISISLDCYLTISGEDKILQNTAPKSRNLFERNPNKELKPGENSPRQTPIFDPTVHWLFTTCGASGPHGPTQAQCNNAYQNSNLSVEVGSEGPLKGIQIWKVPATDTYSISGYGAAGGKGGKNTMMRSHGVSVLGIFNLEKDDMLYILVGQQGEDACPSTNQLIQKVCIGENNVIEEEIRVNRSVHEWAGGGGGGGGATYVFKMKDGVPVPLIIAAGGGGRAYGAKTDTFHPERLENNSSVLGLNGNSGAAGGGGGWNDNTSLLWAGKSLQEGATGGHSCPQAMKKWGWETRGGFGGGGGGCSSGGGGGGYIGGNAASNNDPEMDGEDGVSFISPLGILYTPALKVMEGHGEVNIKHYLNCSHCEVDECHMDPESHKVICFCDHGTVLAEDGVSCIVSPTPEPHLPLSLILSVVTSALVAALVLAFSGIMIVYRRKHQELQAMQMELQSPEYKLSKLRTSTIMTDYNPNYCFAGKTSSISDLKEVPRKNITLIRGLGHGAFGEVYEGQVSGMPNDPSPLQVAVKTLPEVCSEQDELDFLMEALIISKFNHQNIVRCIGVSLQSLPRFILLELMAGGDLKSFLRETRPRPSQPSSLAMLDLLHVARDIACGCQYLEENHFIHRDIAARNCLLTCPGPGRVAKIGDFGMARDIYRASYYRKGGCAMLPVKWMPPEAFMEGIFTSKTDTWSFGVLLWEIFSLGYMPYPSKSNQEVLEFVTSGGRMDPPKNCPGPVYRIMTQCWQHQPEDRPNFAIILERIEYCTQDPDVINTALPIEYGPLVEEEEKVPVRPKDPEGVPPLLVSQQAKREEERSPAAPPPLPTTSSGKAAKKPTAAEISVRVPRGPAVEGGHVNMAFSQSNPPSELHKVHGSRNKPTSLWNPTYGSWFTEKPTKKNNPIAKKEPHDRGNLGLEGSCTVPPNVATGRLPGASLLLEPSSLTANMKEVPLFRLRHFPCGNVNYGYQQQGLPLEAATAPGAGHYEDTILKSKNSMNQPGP
Sequence of UniProt P49674 (whole entry, looked up): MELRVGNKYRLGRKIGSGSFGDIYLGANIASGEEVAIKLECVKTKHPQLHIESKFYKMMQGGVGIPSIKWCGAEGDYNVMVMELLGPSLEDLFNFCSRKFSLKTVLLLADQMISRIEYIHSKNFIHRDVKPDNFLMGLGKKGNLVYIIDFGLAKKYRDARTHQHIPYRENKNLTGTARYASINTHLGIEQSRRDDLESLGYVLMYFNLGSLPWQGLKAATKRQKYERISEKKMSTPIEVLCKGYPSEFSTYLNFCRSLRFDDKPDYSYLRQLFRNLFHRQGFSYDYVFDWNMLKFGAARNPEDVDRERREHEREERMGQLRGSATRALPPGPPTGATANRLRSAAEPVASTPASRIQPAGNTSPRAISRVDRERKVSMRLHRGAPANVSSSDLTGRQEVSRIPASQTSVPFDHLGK
Sequence of UniProt Q8N4C8 (whole entry, looked up): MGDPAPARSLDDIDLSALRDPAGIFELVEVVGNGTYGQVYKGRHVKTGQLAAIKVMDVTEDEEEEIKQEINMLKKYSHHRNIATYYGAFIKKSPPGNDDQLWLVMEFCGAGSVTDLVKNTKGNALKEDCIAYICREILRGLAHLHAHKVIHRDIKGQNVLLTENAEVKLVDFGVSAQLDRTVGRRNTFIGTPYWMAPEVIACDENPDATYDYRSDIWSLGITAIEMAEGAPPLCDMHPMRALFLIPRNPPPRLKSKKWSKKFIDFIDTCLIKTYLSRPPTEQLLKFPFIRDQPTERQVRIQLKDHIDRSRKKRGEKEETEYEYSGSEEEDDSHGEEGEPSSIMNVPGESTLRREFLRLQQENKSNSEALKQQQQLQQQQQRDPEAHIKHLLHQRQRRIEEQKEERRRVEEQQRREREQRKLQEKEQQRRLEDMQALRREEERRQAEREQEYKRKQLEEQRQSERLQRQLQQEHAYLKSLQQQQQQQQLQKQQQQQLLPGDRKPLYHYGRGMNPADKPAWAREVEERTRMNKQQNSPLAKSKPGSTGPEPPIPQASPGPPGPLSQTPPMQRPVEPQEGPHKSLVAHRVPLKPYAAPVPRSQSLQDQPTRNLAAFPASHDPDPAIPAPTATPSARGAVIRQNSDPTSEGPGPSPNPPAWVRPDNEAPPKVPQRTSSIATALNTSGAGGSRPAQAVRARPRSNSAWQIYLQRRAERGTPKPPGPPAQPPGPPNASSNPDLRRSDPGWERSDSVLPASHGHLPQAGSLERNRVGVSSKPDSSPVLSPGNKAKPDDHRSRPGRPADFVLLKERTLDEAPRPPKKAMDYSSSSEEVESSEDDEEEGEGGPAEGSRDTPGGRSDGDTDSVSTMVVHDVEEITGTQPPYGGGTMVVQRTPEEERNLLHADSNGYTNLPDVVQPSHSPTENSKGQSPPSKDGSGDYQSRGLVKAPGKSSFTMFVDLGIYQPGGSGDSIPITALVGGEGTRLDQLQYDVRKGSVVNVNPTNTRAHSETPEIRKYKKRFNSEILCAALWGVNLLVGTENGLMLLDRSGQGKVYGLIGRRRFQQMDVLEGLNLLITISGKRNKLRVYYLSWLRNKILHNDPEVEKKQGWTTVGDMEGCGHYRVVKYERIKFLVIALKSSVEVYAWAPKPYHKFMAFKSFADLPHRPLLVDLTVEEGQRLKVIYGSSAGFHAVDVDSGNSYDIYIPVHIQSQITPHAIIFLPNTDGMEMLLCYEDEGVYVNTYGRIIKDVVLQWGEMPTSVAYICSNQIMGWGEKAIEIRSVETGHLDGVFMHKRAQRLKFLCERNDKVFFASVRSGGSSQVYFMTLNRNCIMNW
Sequence of UniProt Q8N568 (whole entry, looked up): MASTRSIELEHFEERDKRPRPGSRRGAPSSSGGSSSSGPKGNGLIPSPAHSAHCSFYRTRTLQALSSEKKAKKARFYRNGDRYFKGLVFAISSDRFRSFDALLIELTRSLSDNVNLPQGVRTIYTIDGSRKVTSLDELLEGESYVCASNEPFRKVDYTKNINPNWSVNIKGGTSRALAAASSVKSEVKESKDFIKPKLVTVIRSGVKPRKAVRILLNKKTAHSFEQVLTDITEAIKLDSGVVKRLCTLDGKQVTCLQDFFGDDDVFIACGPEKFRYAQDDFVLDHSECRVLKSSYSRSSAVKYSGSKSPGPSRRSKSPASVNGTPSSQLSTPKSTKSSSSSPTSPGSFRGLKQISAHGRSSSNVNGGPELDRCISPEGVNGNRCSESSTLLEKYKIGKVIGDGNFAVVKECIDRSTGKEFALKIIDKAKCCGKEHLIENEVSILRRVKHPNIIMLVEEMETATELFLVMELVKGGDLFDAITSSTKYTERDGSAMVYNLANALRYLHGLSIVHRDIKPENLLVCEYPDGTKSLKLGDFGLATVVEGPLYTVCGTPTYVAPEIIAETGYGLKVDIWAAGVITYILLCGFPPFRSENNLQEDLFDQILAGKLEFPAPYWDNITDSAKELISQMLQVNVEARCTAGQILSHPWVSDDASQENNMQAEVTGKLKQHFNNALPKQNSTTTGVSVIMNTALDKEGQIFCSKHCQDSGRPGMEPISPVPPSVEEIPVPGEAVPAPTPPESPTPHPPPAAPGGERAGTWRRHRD

Series 1 — organism: Sarcocystis neurona; observed: parasite growth; tested at: 10 µM; time: 96 h; notes: secondary screen
Structure (SMILES)	inhibition [%]
COc1ccc(C2CNC(=O)C2)cc1OC1CCCC1 (stereo not drawn)	-24.3
NC12CC3CC(CC(C3)C1)C2	-20.7
CC(C)C[C@H](NC(=O)[C@@H](O)[C@H](N)Cc1ccccc1)C(=O)O	-43.1
C#C[C@]1(O)CC[C@H]2[C@@H]3CCC4=CC(=O)CC[C@@H]4[C@H]3CC[C@@]21C	4.6

Series 2 — cell line: HH; tested at: 2 µM; time: 48 h; reference: untreated
Compound	viability [%]
CC(C)Nc1cc(-c2c[nH]c(C(=O)N[C@H](CO)c3cccc(Cl)c3)c2)c(Cl)cn1	71
CCC[C@H](NC(=O)/C(C#N)=C/c1cccc(Br)n1)c1ccccc1	67.4
CNC(=O)Nc1ccc(-c2nc(N3CC4CCC(C3)O4)c3cnn(C4CCC5(CC4)OCCO5)c3n2)cc1	28.3
COc1ncc(-c2ccc3nccc(-c4ccnnc4)c3c2)cc1NS(=O)(=O)c1ccc(F)cc1F	40
c1cc(-c2cnn3cc(-c4ccc(OCCN5CCCCC5)cc4)cnc23)ccn1	57.5
CN1CCC(COc2cnc(-c3cccc(Cn4nc(-c5cccc(C#N)c5)ccc4=O)c3)nc2)CC1	73.5
CN1CCN(c2cccc(Nc3nc4c(-c5ccc(S(C)(=O)=O)cc5)cccn4n3)c2)CC1	82.4

Series 3 — method: competition with immobilised ligand; tested at: 1 µM
SMILES: O=C(N[C@H]1CCCCC/C=C\C2C[C@@]2(C(=O)O)NC(=O)[C@@H]2C[C@@H](Oc3ccncc3)CN2C1=O)OC1CCCC1 (stereo partly drawn)
target	assay	remaining binding
Ribosomal protein S6 kinase beta-1 (RPS6KB1, Homo sapiens, UniProt P23443)	binding	89%
Calcium/calmodulin-dependent protein kinase type 1 (CAMK1, Homo sapiens, UniProt Q14012)	cell-free assay	87%
MAP kinase-activated protein kinase 5 (MAPKAPK5, Homo sapiens, UniProt Q8IW41)	binding	96%
Phosphatidylinositol 4,5-bisphosphate 3-kinase catalytic subunit alpha isoform (PIK3CA, Homo sapiens, UniProt P42336, Q546K)	binding	98%
Mast/stem cell growth factor receptor Kit (KIT, Homo sapiens, UniProt P10721, D816H)	binding	100%
Serine/threonine-protein kinase LATS2 (LATS2, Homo sapiens, UniProt Q9NRM7)	binding	100%
Casein kinase I isoform epsilon (CSNK1E, Homo sapiens, UniProt P49674)	binding	67%
Mast/stem cell growth factor receptor Kit (KIT, Homo sapiens, UniProt P10721)	binding	91%
Mitogen-activated protein kinase kinase kinase 1 (MAP3K1, Homo sapiens, UniProt Q13233)	binding	84%
ALK tyrosine kinase receptor (ALK, Homo sapiens, UniProt Q9UM73, C1156Y)	cell-free assay	100%
Leukocyte tyrosine kinase receptor (LTK, Homo sapiens, UniProt P29376)	cell-free assay	99%
Dual specificity protein kinase CLK1 (CLK1, Homo sapiens, UniProt P49759)	binding	100%
Serine/threonine-protein kinase DCLK2 (DCLK2, Homo sapiens, UniProt Q8N568)	binding	93%
Interferon-induced, double-stranded RNA-activated protein kinase (EIF2AK2, Homo sapiens, UniProt P19525)	binding	100%
Tyrosine-protein kinase JAK1, JH2 (JAK1, Homo sapiens, UniProt P23458)	binding	89%
Epidermal growth factor receptor (EGFR, Homo sapiens, UniProt P00533, A750P/del747-749)	cell-free assay	100%
Mitogen-activated protein kinase 1 (MAPK1, Homo sapiens, UniProt P28482)	binding	72%
Ribosomal protein S6 kinase alpha-4, C-terminal kinase domain (RPS6KA4, Homo sapiens, UniProt O75676)	binding	85%
Ribosomal protein S6 kinase alpha-3, C-terminal kinase domain (RPS6KA3, Homo sapiens, UniProt P51812)	binding	89%
Calcium/calmodulin-dependent protein kinase type II subunit gamma (CAMK2G, Homo sapiens, UniProt Q13555)	binding	86%
Misshapen-like kinase 1 (MINK1, Homo sapiens, UniProt Q8N4C8)	binding	100%

Series 4 — Compound: Cn1nc2c3c(cccc31)C(=O)c1ccccc1-2; observed: enzyme activity; mode: inhibitor; tested at: 0.5 µM; reference: control
target	remaining activity
Activin receptor type-1B (ACVR1B, Homo sapiens, UniProt P36896)	102%
Rhodopsin kinase GRK7 (GRK7, Homo sapiens, UniProt Q8WTQ7)	113%
Angiopoietin-1 receptor (TEK, Homo sapiens, UniProt Q02763)	98.2%
Tyrosine-protein kinase ABL2 (ABL2, Homo sapiens, UniProt P42684)	97.8%
Serine/threonine-protein kinase Nek1 (NEK1, Homo sapiens, UniProt Q96PY6)	78.3%
Serine/threonine-protein kinase Nek6 (NEK6, Homo sapiens, UniProt Q9HC98)	108%
Fibroblast growth factor receptor 3 (FGFR3, Homo sapiens, UniProt P22607)	95.9%
Serine/threonine-protein kinase ULK3 (ULK3, Homo sapiens, UniProt Q6PHR2)	94.9%
Mitogen-activated protein kinase kinase kinase 5 (MAP3K5, Homo sapiens, UniProt Q99683)	93.1%
Serine/threonine-protein kinase ULK2 (ULK2, Homo sapiens, UniProt Q8IYT8)	109%
Mitogen-activated protein kinase kinase kinase 14 (MAP3K14, Homo sapiens, UniProt Q99558)	107%
Tyrosine-protein kinase Mer (MERTK, Homo sapiens, UniProt Q12866)	95.9%
Ephrin type-A receptor 3 (EPHA3, Homo sapiens, UniProt P29320)	93.5%
